Measurements from different studies.
Parts stem from different laboratories: compare values within a part only.
Chain of UniProt Q8IW41 (whole entry, looked up): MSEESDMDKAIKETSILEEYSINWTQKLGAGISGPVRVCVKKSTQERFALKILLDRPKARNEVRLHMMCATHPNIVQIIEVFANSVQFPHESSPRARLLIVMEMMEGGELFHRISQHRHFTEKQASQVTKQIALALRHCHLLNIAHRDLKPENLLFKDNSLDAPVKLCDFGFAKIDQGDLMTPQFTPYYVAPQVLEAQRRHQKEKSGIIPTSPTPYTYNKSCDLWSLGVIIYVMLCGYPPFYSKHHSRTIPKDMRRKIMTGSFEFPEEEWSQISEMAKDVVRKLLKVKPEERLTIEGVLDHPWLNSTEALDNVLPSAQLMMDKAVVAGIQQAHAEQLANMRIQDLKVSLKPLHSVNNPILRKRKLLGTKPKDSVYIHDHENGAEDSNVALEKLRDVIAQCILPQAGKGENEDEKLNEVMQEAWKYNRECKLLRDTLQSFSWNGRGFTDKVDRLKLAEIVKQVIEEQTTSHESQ
Chain of UniProt P49137 (whole entry, looked up): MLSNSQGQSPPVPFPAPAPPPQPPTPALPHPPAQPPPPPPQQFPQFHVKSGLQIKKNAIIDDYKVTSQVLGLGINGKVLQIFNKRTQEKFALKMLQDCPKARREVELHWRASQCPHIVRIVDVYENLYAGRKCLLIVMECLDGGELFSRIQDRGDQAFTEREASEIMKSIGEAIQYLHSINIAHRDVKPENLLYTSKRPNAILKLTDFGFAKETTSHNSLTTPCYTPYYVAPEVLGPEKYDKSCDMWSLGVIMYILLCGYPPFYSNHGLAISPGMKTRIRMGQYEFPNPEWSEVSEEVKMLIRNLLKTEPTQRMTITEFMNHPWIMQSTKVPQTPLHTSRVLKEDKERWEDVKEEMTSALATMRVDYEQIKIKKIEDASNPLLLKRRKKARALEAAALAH
Chain of UniProt P49674 (whole entry, looked up): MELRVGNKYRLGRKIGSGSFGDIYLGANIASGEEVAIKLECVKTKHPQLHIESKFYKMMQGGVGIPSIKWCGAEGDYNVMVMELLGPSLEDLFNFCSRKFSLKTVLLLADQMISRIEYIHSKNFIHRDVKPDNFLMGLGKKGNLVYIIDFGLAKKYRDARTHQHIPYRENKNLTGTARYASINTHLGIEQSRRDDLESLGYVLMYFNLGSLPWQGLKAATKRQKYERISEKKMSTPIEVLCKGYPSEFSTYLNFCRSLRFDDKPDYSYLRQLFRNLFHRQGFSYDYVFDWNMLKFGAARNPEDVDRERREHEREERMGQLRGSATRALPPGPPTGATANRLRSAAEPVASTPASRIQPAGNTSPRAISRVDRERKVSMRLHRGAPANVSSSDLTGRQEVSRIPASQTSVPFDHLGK
Chain of UniProt Q96Q40 (whole entry, looked up): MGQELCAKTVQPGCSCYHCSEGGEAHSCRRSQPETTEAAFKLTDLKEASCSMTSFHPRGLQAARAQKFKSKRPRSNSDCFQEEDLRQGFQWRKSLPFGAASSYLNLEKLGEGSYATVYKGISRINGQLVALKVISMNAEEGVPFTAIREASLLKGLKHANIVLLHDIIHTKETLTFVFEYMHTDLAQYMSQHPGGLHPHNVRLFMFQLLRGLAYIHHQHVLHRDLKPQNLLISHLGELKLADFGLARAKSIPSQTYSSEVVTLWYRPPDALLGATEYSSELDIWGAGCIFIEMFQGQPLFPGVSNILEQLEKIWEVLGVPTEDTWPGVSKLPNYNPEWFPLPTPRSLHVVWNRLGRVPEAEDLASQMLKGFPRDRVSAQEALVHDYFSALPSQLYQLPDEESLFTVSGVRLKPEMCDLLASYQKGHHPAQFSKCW
Chain of UniProt Q96GD4 (whole entry, looked up): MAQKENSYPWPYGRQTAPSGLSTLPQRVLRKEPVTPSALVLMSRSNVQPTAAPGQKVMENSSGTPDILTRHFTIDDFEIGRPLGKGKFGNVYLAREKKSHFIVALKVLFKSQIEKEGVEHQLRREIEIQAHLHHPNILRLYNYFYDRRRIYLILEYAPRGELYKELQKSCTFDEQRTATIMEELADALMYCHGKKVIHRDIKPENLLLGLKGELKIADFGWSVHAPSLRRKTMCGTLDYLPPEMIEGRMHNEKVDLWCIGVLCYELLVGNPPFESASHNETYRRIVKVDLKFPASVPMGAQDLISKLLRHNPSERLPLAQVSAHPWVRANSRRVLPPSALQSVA
Chain of UniProt P57059 (whole entry, looked up): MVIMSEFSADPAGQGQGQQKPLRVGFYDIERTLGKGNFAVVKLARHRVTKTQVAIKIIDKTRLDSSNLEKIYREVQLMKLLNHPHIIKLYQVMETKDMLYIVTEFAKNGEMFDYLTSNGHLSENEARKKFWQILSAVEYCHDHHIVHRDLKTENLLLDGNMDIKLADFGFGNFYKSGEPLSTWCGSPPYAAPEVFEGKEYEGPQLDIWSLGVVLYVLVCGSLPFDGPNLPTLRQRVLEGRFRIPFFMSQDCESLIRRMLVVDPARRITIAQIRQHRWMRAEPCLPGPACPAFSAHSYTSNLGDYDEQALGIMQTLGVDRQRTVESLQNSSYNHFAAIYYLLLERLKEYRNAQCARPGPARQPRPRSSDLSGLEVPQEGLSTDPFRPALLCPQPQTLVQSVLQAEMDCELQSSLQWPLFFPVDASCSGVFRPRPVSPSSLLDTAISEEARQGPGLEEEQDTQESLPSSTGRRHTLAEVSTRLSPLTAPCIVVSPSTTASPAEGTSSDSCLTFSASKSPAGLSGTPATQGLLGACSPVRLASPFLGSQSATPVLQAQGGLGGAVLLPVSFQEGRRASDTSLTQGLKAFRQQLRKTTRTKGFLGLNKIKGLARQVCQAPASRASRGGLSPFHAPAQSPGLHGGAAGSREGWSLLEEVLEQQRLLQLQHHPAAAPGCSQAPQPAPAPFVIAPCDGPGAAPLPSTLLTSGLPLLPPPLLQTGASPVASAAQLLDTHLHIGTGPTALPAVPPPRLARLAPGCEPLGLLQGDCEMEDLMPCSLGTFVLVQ
Chain of UniProt O94921 (whole entry, looked up): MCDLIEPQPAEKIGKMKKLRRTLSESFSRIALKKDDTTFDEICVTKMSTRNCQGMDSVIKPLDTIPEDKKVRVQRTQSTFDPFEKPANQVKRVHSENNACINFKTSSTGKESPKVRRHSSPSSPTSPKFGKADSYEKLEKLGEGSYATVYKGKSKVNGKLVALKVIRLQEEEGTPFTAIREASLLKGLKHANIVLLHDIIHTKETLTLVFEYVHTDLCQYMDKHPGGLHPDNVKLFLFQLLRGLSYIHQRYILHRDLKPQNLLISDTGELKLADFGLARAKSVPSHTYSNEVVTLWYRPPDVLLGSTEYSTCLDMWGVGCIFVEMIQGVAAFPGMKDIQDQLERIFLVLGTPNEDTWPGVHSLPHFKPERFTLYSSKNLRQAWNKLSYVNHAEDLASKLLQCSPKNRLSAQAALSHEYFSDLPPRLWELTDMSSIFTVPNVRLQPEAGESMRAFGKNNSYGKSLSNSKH

Set 1
Target: Transcription factor SOX-2, HMG box (Sox2, Mus musculus, UniProt P48432, residues 41-119)
Chain of UniProt P48432 (41-119, looked up): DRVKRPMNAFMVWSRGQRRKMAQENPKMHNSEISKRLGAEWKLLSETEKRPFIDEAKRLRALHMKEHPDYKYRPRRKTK
Technique: Spec-seq
Molecule type: double-stranded DNA, one strand shown
Matrix: in vitro
Tested at: not given
Setting: whole probe, mean of replicates
Baseline: not given
Reading: lower = stronger binding
Constant ends, left off below: GAGTCGTCTCGTCAGCAC … CCGTAGAGCACTCAGGTC
`TAGGGTT` — result for “relative binding energy”: 0.913 ln ratio.
Under “relative binding energy”, `ATACGTT` is recorded as 0.467 ln ratio.
For `CATCAAT`, “relative binding energy” read -0.0783 ln ratio.
Under “relative binding energy”, `CATACGG` is recorded as -0.104 ln ratio.
For `CATTCGG`, “relative binding energy” read 0.0176 ln ratio.
`CATACCT`: “relative binding energy” 0.354 ln ratio.
`GTGTGTT` — result for “relative binding energy”: 0.567 ln ratio.
`TCGGGTT`: “relative binding energy” 1.42 ln ratio.

Set 2
Structure (SMILES): COc1cc(-c2cn(C3CCc4c(F)cccc4N(CC(F)(F)F)C3=O)nn2)ccc1-n1cnc(C)c1 (stereo not shown)
Tested at: 1 µM
It gave 100% for remaining binding (MAPKAPK2 (Homo sapiens, UniProt P49137); cell-free assay, competition with immobilised ligand).
It gave 80% for remaining binding (CSNK1E (Homo sapiens, UniProt P49674); cell-free assay, competition with immobilised ligand).
For Aurora kinase B (AURKB, Homo sapiens, UniProt Q96GD4); cell-free assay, competition with immobilised ligand: remaining binding read 100%.
For FLT3 (Homo sapiens, UniProt P36888, D835Y); cell-free assay, competition with immobilised ligand: remaining binding read 86%.
It gave 100% for remaining binding (STK39 (Homo sapiens, UniProt Q9UEW8); cell-free assay, competition with immobilised ligand).
For CDK15 (Homo sapiens, UniProt Q96Q40); cell-free assay, competition with immobilised ligand: remaining binding read 100%.
SIK1 (Homo sapiens, UniProt P57059); competition binding — remaining binding: 100%.
The remaining binding was 100% (MAPKAPK5 (Homo sapiens, UniProt Q8IW41); cell-free assay, competition with immobilised ligand).
CDK14 (Homo sapiens, UniProt O94921); cell-free assay, competition with immobilised ligand — remaining binding: 100%.
For FLT3 (Homo sapiens, UniProt P36888, ITD); cell-free assay, competition with immobilised ligand: remaining binding read 100%.

Set 3
Target: Histone acetyltransferase KAT6A, winged helix 2, GST fusion (KAT6A, Homo sapiens, UniProt Q92794, residues 85-181)
Technique: protein binding microarray
Molecule type: double-stranded DNA, one strand shown
Matrix: in vitro
Tested at: not given
Setting: 8-mer, flanks averaged, mean of 2 arrays, mostly near background
Baseline: not given
Reading: higher = stronger binding
Residues (chain): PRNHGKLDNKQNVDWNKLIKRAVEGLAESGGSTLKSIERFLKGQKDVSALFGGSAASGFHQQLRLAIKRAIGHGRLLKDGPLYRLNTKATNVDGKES
With `ACAACTGC` the E-score was 0.0637.
`ACGTCCAG` gave an E-score of -0.198.
For `AATCCATT`, the E-score was -0.0443.
The E-score of `AGATAATC` is reported as 0.0791.
The E-score of `ACTATTGC` is reported as -0.0982.
`CATTCCGG` has an E-score of 0.0371.
`GATATTCA` gave an E-score of -0.124.
`GAGGCAGA` gave an E-score of 0.0456.

Set 4
Species: human
Matrix: microsomes or S9
Tested at: 2 µM
Time: 0.5 h
`CC(C)Oc1ccccc1NS(=O)(=O)c1cccc(S(=O)(=O)C2CCS(=O)(=O)C2)c1` (stereo not shown) gave a remaining compound of 27.4%.
`COc1ccccc1CNC(=O)c1c(OCC(C)C)cc(=O)n2c1CCCCC2` gave a remaining compound of 0.0537%.
For `O=C(NCCc1ccccc1)N1Cc2c(sc3c2CCCC3)-n2cccc2C1c1cccs1` (stereo not shown), the remaining compound was 2.21%.
`CCOC(=O)C1CCN(c2nccc3c2OC(C)(C)C=C3)CC1` has a remaining compound of 0.178%.
`CC(C)C(C)NC(=O)N(C)CC(C)(C)CN1CCOCC1` (stereo not shown) gave a remaining compound of 46.2%.
